Assay results of several laboratories.
Parts stem from different laboratories: compare values within a part only. Substitutions count along the parent as printed.

Sample 1
Target: Fragile X messenger ribonucleoprotein 1, C-terminal low-complexity region (Fmr1, Mus musculus, UniProt P35922)
Technique: RNA Bind-n-Seq
Molecule type: RNA
Matrix: in vitro
Tested at: 200 nM
Setting: whole 134-nt RNA, ends assumed
Together with: 150 mM LiCl
Baseline: input library
Reading: higher = stronger binding
Each molecule: 7-deaza-guanosine replaces G
All sequences stand within: GGGAGUUCUACAGUCCGACGAUC … UGGAAUUCUCGGGUGUCAAGG
| Strand | log2 enrichment |
| --- | --- |
| UGUGCUACACAUCGUAUGUACCGAAUCGGGGAAAAAAAGGGGAAAAAAAGGGGAAAAAAAGGGAAAGUAUUAUGUUACGCCGUUCGGAUC | 1.14 |
| AAGUCCUGUGCUACACAUCGUAUGUACCGAAUCGGGUUUUUUUGGGAAAGGGAGGGAAAGUAUUAUGUUACGCCGUUCGGAUCUGCACUU | -0.743 |
| AGUCCUGUGCUACACAUCGUAUGUACCGAAUCGGCCCCCGGCCCCCGGGGCCCCCGGGAAAGUAUUAUGUUACGCCGUUCGGAUCUGCAC | -2.33 |
| GCAGGAAGUAAAAACAAAUGGAAAUGCUUCGGAUAGUGGCAGGGGUGGGGGUUGCAAAGGAAAGGGUGGGAUGGGAGUGGGUAAAGAGUU | 1.35 |
| CACAGACAACACGCACCCACACAGACACAGAGGGAAGGGGUUGGGAUGGGGAAAGGGUGCACAGCAGGGCGGGGUAGGACCCCAGCCCCU | 0.327 |
| UCCUGUGCUACACAUCGUAUGUACCGAAUCGGGGAAAAAAGGGAAAAAAGGAAAAAAGGGAAAGUAUUAUGUUACGCCGUUCGGAUCUGC | 0.26 |
| UCCUGUGCUACACAUCGUAUGUACCGAAUCAAACCCCCAAAUUUUUUUAAAUUUUUAAAAAAGUAUUAUGUUACGCCGUUCGGAUCUGCA | 1.21 |
| AAGUCCUGUGCUACACAUCGUAUGUACCGAAUCGGGAGGGAAAAAGGGAAAAAGGGAAAGUAUUAUGUUACGCCGUUCGGAUCUGCACUU | -0.111 |

Sample 2
Target: Eukaryotic initiation factor 4A-I (EIF4A1, Homo sapiens, UniProt P60842, residues 1-406, full length assumed)
UniProt P60842, sequence (whole entry, looked up): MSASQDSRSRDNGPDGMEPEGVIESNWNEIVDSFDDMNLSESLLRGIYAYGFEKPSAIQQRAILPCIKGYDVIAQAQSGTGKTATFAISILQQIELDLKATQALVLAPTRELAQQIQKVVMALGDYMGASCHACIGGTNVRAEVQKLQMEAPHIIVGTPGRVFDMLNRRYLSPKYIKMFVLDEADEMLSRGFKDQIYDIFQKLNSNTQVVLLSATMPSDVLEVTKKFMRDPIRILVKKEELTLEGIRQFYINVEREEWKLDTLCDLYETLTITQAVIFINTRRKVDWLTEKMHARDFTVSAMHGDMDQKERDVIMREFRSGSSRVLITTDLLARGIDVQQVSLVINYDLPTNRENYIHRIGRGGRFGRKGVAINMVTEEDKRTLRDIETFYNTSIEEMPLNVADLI
Technique: RNA Bind-n-Seq
Molecule type: RNA
Matrix: in vitro
Tested at: 15 pmol
Setting: 4-mer, random 30-nt RNA, single round
Together with: DMSO vehicle, 2 mM AMP-PNP
Baseline: input library
Reading: higher = stronger binding
| Strand | 4-mer enrichment [fold] |
| --- | --- |
| AAGC | 1.55 |
| ACAC | 1.13 |
| GAGG | 1.35 |
| ACGA | 1.44 |
| AAAG | 1.29 |
| GUCG | 0.874 |
| GACG | 1.46 |
| GCAU | 0.926 |
| AUUA | 0.985 |
| UAUG | 0.877 |
| UCUU | 0.876 |
| UAAA | 1.17 |

Sample 3
Target: Histone acetyltransferase KAT6A, winged helix 1, GST fusion (KAT6A, Homo sapiens, UniProt Q92794, residues 1-85)
Technique: protein binding microarray
Molecule type: double-stranded DNA, one strand shown
Matrix: in vitro
Tested at: not given
Setting: 8-mer, flanks averaged, mean of 2 arrays, mostly near background
Baseline: not given
Reading: higher = stronger binding
Target sequence (chain): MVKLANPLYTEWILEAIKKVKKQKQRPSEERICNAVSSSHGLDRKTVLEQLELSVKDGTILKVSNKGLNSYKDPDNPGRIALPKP
| Strand | E-score |
| --- | --- |
| CGACATCC | 0.166 |
| AAAGCGAG | 0.0734 |
| ACAATACG | 0.11 |
| ACAGCAGA | -0.0843 |
| GATTGTGA | -0.0765 |
| TGTCCACA | -0.213 |
| CTAGAATC | -0.311 |
| CACCGACG | 0.342 |
| ACTTCTAG | -0.0342 |
| CGCACATA | 0.178 |
| ATTCGAAG | -0.152 |
| ACCAAGCC | -0.0159 |
| CCATAAGC | 0.0552 |
| CCTCAGAA | -0.118 |
| AAATCTCC | -0.108 |
| GAAGATCA | -0.151 |
| ATTAGACA | -0.267 |
| GCAGCCGA | 0.244 |
| AACGGCTC | 0.253 |
| GTAACTGA | -0.1 |

Sample 4
Target: CCNF, cyclin fold, Cln2 fusion (human)
Technique: yeast growth competition, sequencing
Matrix: yeast
Setting: strong parent motif
Baseline: not given
Reading: higher = stronger binding
Starting sequence: CENPC docking peptide (human); VKTKKRLNFDDKV; partner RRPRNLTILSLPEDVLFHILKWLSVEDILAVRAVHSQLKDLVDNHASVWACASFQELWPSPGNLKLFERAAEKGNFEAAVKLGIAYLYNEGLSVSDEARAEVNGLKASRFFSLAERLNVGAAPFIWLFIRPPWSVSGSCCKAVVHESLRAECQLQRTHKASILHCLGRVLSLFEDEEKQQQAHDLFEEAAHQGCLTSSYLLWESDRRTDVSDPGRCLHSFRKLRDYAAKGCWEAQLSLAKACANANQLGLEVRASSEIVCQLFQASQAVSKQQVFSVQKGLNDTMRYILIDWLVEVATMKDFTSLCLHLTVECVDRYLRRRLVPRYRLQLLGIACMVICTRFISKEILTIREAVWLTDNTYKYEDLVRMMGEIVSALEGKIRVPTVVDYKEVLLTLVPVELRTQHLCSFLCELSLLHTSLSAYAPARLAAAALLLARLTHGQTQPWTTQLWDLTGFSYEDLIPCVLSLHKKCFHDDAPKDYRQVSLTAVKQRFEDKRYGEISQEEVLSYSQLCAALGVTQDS
| Substitution | normalised enrichment score |
| --- | --- |
| K4A | 5.5 |
| V1A | 4.78 |
| K5R | 8.34 |
| V13A | 3.88 |
| F9A | 0.986 |
| D11A | 5.07 |
| N8A | 3.55 |

Sample 5
Target: ABI1, truncated, D143A, DHFR fusion (Arabidopsis thaliana)
Technique: DHFR PCA, deep sequencing
Matrix: yeast
Setting: methotrexate growth selection, single substitutions
Together with: (+)-ABA 4.8 µM
Baseline: wild-type fitted maximum
Reading: higher = stronger binding
Starting sequence: PYL1, truncated, DHFR fusion (Arabidopsis thaliana); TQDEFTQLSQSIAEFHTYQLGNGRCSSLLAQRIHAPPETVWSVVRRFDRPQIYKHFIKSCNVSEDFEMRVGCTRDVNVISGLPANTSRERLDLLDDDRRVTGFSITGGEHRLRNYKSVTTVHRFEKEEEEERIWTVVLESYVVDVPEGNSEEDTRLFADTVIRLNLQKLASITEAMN; partner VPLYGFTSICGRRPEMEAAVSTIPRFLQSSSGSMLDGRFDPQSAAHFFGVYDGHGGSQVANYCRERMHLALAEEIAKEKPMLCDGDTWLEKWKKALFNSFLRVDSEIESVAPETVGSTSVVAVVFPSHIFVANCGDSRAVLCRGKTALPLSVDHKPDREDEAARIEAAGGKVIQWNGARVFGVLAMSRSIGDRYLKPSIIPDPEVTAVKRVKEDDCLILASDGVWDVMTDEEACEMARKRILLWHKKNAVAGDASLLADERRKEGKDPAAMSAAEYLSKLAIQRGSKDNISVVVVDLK
| Substitution | relative binding score [%] |
| --- | --- |
| I162N | 14.7 |
| G21W | 42.7 |
| L91A | 7.41 |
| T6Q | 78.1 |
| R69C | 64 |
| K126H | 82.6 |
| P37N | -10.4 |
| I33S | -2.18 |
| E151V | 83.9 |
| R49N | 59.1 |
| T101D | 5.01 |
| S117G | 11.2 |

Single results of other studies
| Molecule | partner | technique | matrix | together with | quantity | result |
| --- | --- | --- | --- | --- | --- | --- |
| SF3A3 (Homo sapiens, UniProt Q12874) | SF3B4 (Homo sapiens, UniProt Q15427) | cross-linking MS | cell fractions | DSSO | cross-linked residues | K420 to T42 |

For quick reference, copied from above (sample 5):
| Substitution | relative binding score [%] |
| --- | --- |
| I33S | -2.18 |
| E151V | 83.9 |
| K126H | 82.6 |
| L91A | 7.41 |
| I162N | 14.7 |
| S117G | 11.2 |
